Experimental data collected from several papers.
Lines come from different studies, so protocols differ. Values joined by “and” are separate records of one study, mostly repeats; a detail may differ. Numbers after ± are the reported error.
Sequence of UniProt P10721 (whole entry, unmodified, looked up): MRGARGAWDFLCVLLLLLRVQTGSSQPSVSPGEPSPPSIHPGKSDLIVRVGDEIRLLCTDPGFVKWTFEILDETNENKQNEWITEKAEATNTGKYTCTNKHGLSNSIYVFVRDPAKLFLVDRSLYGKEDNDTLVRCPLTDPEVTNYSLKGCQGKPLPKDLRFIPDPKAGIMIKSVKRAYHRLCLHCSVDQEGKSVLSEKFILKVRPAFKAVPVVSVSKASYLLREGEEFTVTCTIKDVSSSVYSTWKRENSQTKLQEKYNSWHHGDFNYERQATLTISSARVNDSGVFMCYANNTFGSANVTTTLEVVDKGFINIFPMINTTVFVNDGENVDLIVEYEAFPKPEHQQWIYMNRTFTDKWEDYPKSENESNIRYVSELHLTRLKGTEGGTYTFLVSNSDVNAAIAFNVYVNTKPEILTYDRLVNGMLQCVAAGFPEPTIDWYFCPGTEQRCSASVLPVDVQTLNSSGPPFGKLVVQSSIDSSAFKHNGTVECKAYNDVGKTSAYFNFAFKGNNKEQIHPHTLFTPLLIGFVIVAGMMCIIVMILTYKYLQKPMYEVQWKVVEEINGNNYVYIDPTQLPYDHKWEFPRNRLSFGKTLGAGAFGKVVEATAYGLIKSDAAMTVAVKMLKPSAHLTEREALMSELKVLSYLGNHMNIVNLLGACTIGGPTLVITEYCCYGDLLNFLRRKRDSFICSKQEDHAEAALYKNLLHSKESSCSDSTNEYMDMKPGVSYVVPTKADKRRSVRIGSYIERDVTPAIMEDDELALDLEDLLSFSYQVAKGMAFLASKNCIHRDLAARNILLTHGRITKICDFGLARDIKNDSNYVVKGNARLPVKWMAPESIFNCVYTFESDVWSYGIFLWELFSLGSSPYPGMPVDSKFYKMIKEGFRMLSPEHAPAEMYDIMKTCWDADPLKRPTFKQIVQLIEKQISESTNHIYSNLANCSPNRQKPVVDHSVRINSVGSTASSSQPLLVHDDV

With `CS(C)(=O)=Nc1ccc(-c2ccc(-c3nc4cc(O[C@@H]5CO[C@H]6[C@@H]5OC[C@H]6O)[nH]c4cc3F)cc2)cc1` the inhibition was -9% (KIT (Homo sapiens, UniProt P10721, V654A); enzyme activity, inhibitor; 10 µM).
With `COc1ccccc1-c1n[nH]c2nc(NC3CCN(C(=O)Cc4ccc(F)cc4F)CC3)ncc12` the relative abundance was 1.12 (bead binding, competition bead pull-down, measured: LINJ.33.0600; Leishmania donovani axenic amastigote extract; 10 µM; baseline: vehicle).
With `CC(C)(CCCC/C=C/CCCCCC(C)(C)C(=O)O)C(=O)O` the plasma concentration was 21100 ng/mL (beagle dog, both sexes; oral, dose not given, 2 h).
The AST of `CC(=O)N[C@H](C(=O)N[C@@H](CCCC(=O)OC(C)(C)C)C(=O)N[C@@H](CCC1CCCCC1)C(=O)N[C@@H](CC(=O)O)C(=O)COC(=O)c1c(C)cccc1C)C(C)(C)C` is reported as 316 U/L and 450 U/L and 390 U/L and 328 U/L and 590 U/L and 1320 U/L (C57BL/6N mouse, serum; concentration not given, compound alone).
`CCCC[C@@H]1NC(=O)[C@H](Cc2ccc(O)cc2)NC(=O)[C@@H]2CCCN2C(=O)[C@H](CC(=O)O)NC(=O)[C@H](C)NC(=O)[C@H](Cc2ccccc2)NC(=O)[C@@H]2CSCCC(=O)N3CN(CN(C3)C(=O)CCSC[C@@H](C(=O)N[C@@H](C)C(N)=O)NC1=O)C(=O)CCSC[C@H](NC(C)=O)C(=O)N[C@@H](CC(C)(C)C)C(=O)N1CCC[C@H]1C(=O)N[C@@H](CCC(=O)O)C(=O)N[C@H](CCCCNC(=O)CCc1cn(CCOCCOCCOCCN(CCOCCOCCOCCC(=O)N[C@H]3CSCCC(=O)N4CN5CN(C4)C(=O)CCSC[C@H](NC(=O)[C@@H](CC(=O)O)NC(=O)[C@H](Cc4cccc6ccccc46)NC(=O)[C@@H]4CCCN4C3=O)C(=O)N[C@@H](CCSC)C(=O)N[C@@H](CCCCNC(=N)N)C(=O)N[C@@H](CC(=O)O)C(=O)N[C@@H](Cc3c[nH]c4ccccc34)C(=O)N[C@@H](CO)C(=O)N[C@@H]([C@@H](C)O)C(=O)N3CCC[C@H]3C(=O)N3C[C@H](O)C[C@H]3C(=O)N[C@@H](Cc3c[nH]c4ccccc34)C(=O)N[C@H](C(N)=O)CSCCC5=O)CCOCCOCCOCCn3cc(CCC(=O)NCCCC[C@H]4NC(=O)[C@H](CCC(=O)O)NC(=O)[C@@H]5CCCN5C(=O)[C@H](CC(C)(C)C)NC(=O)[C@@H](NC(C)=O)CSCCC(=O)N5CN6CN(C5)C(=O)CCSC[C@H](NC(=O)[C@H](Cc5ccc(O)cc5)NC(=O)[C@@H]5CCCN5C4=O)C(=O)N[C@@H](Cc4ccccc4)C(=O)N[C@@H](C)C(=O)N[C@@H](CC(=O)O)C(=O)N4CCC[C@H]4C(=O)N[C@@H](Cc4ccc(O)cc4)C(=O)N[C@@H](CCCC)C(=O)N[C@H](C(=O)N[C@@H](C)C(N)=O)CSCCC6=O)nn3)nn1)C(=O)N1CCC[C@H]1C(=O)N[C@@H](Cc1ccc(O)cc1)C(=O)N2` has a half-life of 6.2 ± 2.5 h (cynomolgus monkey).
With `O=C1NC2(CC2)COc2ncc(F)cc2[C@H]2COCCN2c2ccn3ncc1c3n2` the serum triglycerides was 0.45 ± 0.32 mmol/L (Sprague-Dawley rat, female, serum; oral, 20 mg/kg/day, end of treatment, 4-week subacute toxicity).
For `N=C(N)NCCC[C@H](NC(=O)[C@H](CCCNC(=N)N)NC(=O)[C@H](CCCNC(=N)N)NC(=O)[C@H](CCC(N)=O)NC(=O)[C@H](CCCNC(=N)N)NC(=O)[C@H](CCCNC(=N)N)NC(=O)[C@H](CCCCN)NC(=O)[C@H](CCCCN)NC(=O)[C@H](CCCNC(=N)N)NC(=O)CNC(=O)[C@H](Cc1ccc(O)cc1)NC(=O)[C@H](Cc1ccccc1)NC(=O)[C@H](Cc1ccccc1)NC(=O)[C@H](Cc1ccccc1)NC(=O)OCC1c2ccccc2-c2ccccc21)C(=O)O`, the health score was 5 (C57BL/6 mice; intraperitoneal, 10 mg/kg, 0.5 h; direction not given).
`Cc1ccccc1-c1ccc(-c2nc(-c3ccc(CN(C)CCCC(=O)O)c([18F])c3)no2)cc1C(F)(F)F` has a tracer uptake of 0.9 %ID/g (rat, kidney; 2 h).
With `Cc1ccc(NS(=O)(=O)c2c(C(=O)N3CCCCCC3)c(C)n(C)c2C)c(Cl)c1` the viability was 95.6% and 100% (CV-1; African green monkey cells; 33.33 µM, 60 (unit not given)).
`CSCC[C@H](N)C(=O)N[C@@H](C)C(=O)N[C@@H](CCCNC(=N)N)C(=O)N[C@@H](CCCNC(=N)N)C(=O)N[C@@H](CC(=O)O)C(=O)N[C@@H](CCCCN)C(=O)N[C@H](C(=O)N[C@@H](CC(=O)O)C(=O)N[C@@H](Cc1ccccc1)C(=O)N[C@@H](C)C(=O)N[C@@H](CCCNC(=N)N)C(=O)N[C@@H](CCCNC(=N)N)C(=O)N[C@@H](CCCNC(=N)N)C(=O)N[C@@H](CCCNC(=N)N)C(=O)NCCCCCC(=O)NCCCCC(NC(=O)CCCCCNC(=O)[C@H](CCCNC(=N)N)NC(=O)[C@H](CCCNC(=N)N)NC(=O)[C@H](CCCNC(=N)N)NC(=O)[C@H](CCCNC(=N)N)NC(=O)[C@H](C)NC(=O)[C@H](Cc1ccccc1)NC(=O)[C@H](CC(=O)O)NC(=O)[C@@H](NC(=O)[C@H](CCCCN)NC(=O)[C@H](CC(=O)O)NC(=O)[C@H](CCCNC(=N)N)NC(=O)[C@H](CCCNC(=N)N)NC(=O)[C@H](C)NC(=O)[C@@H](N)CCSC)[C@@H](C)O)C(=O)NCCCCC(NC(=O)C(CCCCNC(=O)CCCCCNC(=O)[C@H](CCCNC(=N)N)NC(=O)[C@H](CCCNC(=N)N)NC(=O)[C@H](CCCNC(=N)N)NC(=O)[C@H](CCCNC(=N)N)NC(=O)[C@H](C)NC(=O)[C@H](Cc1ccccc1)NC(=O)[C@H](CC(=O)O)NC(=O)[C@@H](NC(=O)[C@H](CCCCN)NC(=O)[C@H](CC(=O)O)NC(=O)[C@H](CCCNC(=N)N)NC(=O)[C@H](CCCNC(=N)N)NC(=O)[C@H](C)NC(=O)[C@@H](N)CCSC)[C@@H](C)O)NC(=O)CCCCCNC(=O)[C@H](CCCNC(=N)N)NC(=O)[C@H](CCCNC(=N)N)NC(=O)[C@H](CCCNC(=N)N)NC(=O)[C@H](CCCNC(=N)N)NC(=O)[C@H](C)NC(=O)[C@H](Cc1ccccc1)NC(=O)[C@H](CC(=O)O)NC(=O)[C@@H](NC(=O)[C@H](CCCCN)NC(=O)[C@H](CC(=O)O)NC(=O)[C@H](CCCNC(=N)N)NC(=O)[C@H](CCCNC(=N)N)NC(=O)[C@H](C)NC(=O)[C@@H](N)CCSC)[C@@H](C)O)C(N)=O)[C@@H](C)O` (stereo partly shown): “mean tissue distribution” 47.3% (C57BL/6 mouse female, stomach; dose not given, 6 h; baseline: total).
`CC(C)(C)C(=O)OCOP(=O)(OCOC(=O)C(C)(C)C)C1CCCN(O)C1=O` (stereo not shown) gave a GI50 of 314 nM (Hs-578T).
For `COc1ccc(CNc2ccc3c(c2)S(=O)(=O)C=C3)cc1`, the CD45+ cells was 72.7% (flow cytometry; male C57BL/6 mice, spleen; i.p., 20 mg/kg, 8 days; baseline: splenocytes).
With `Cc1nc2cccc(OCC(C)(C)C(=O)NC(C)C)c2c(N)c1C(=O)[O-].[Na+]` the revertant colonies was 17 ± 3 colonies/plate (Salmonella typhimurium; Ames preincubation; TA1535; 0.32 mg/plate, together with: with rat liver S9).
`CC[C@H](C)[C@H](NC(=O)[C@H](CCCCN)NC(=O)CNC(=O)[C@H](CC(C)C)NC(=O)[C@H](Cc1ccccc1)NC(=O)[C@H](CCCCN)NC(=O)[C@H](CO)NC(=O)[C@H](Cc1ccccc1)NC(=O)[C@H](Cc1c[nH]c2ccccc12)NC(=O)[C@H](CCC(N)=O)NC(=O)[C@@H](NC(=O)[C@H](Cc1ccccc1)NC(=O)CCCCCNC(=O)CN1CCN(CC(=O)O)CCN(CC(=O)O)CCN(CC(=O)O)CC1)C(C)C)C(=O)N[C@@H](CCC(=O)O)C(=O)N1CCC[C@H]1C(=O)N[C@H](CC(=O)O)C(=O)N[C@H](C(=O)N[C@@H](CO)C(=O)N[C@@H](CCC(N)=O)C(=O)N[C@H](C(=O)N[C@@H](CCC(N)=O)C(=O)N[C@@H](CC(=O)O)C(=O)N1CCC[C@H]1C(=O)N[C@@H](CC(N)=O)C(=O)N[C@@H](CC(=O)O)C(=O)N[C@@H](CCC(N)=O)C(=O)N[C@@H](Cc1ccc(O)cc1)C(=O)N[C@@H](CCC(=O)O)C(=O)N1CCC[C@H]1C(=O)N[C@@H](Cc1ccccc1)C(=O)O)C(C)C)C(C)C` [copper-64 labelled] gave a tissue uptake of 33.5 ± 3 %ID/g (female mice, EMT6 tumour-bearing, kidneys; 2 h, uncleavable control tracer, vehicle-treated).
For `CCc1nn(C)c2nc(-c3ccc(C(=O)O)cc3)nc(NCc3ccccc3)c12`, the concentration was 7.83 ng/mL (male CD-1 mouse, plasma; intravenous, 1 mg/kg, 15 min).
For `Cc1cccc2c1C1(CCN(C(=O)c3ccc4[nH]ncc4c3)CC1)C(=O)N2CC(=O)NCC(F)(F)F`, the CLint was 21 µL/min/mg protein (mouse liver microsomes).
`N#[11C]c1ccc(-c2csc(NN=C3CCCC3)n2)cc1` has a radioactivity uptake of 1.15 ± 0.6 %ID/g (C57BL/6 mice, male, muscle; intravenous, 3 MBq, 30 min).
`C(#Cc1cncc(OC[C@@H]2CCN2)c1)c1ccccc1` gave a concentration of 410 ng/mL (male Sprague-Dawley rat, plasma; oral, 75 mg/kg, 30 min).
With `COc1cccc(O)c1C(=O)/C=C/c1ccc2cc(N3CCCC3)ccc2c1` the tissue concentration was 38.5 ng/g (C57BL/6J mice, liver; intraperitoneal, 50 mg/kg single, 2 h).
With `CSCC[C@H](NC(=O)CNC(=O)[C@H](CCCCN)NC(=O)[C@H](CC(C)C)NC(=O)[C@@H]1CCCN1C(=O)[C@H](CO)NC(=O)[C@H](Cc1c[nH]cn1)NC(=O)[C@H](Cc1c[nH]c2ccccc12)NC(=O)[C@H](CCCNC(=N)N)NC(=O)[C@H](CC(C)C)NC(=O)[C@H](CCCNC(=N)N)NC(=O)[C@H](Cc1c[nH]c2ccccc12)NC(=O)[C@H](CS)NC(=O)CCCCCNC(=O)CN1CCN(CC(=O)O)CCN(CC(=O)O)CCN(CC(=O)O)CC1)C(=O)O` [copper-64 labelled] the tissue uptake was 1.6 %ID/g (ex vivo biodistribution; C57BL/6J mice bearing B16-F10 tumours, pancreas; intravenous, 1.85 MBq, 0.5 h).
For `CC(C)=CCC/C(C)=C/CCn1cc(CC(P(=O)(O)O)P(=O)(O)O)nn1`, mRNA level read “increased” (qRT-PCR, measured: Slco2a1 and Slc10a1; CD-1 mice, liver; intravenous, 0.3 mg/kg; baseline: control).
`CN1Cc2cc(Cl)ccc2-n2c(nnc2C2CCN(c3cccc([18F])n3)CC2)C1` gave a tissue uptake of 1.44 ± 0.53 %ID/g (C57BL/6 mouse male, testis; intravenous, dose not given, 30 min, together with: blocking agent 10 mg/kg).
`COc1cnc2cccc(N3CCc4c(cc(Cn5ccnc5)cc4-c4cn(C)nc4C(F)(F)F)C3=O)c2c1` gave a body weight of 29.6 ± 0.5 g (CD-1 mice; intraperitoneal, 50 mg/kg once daily, day 4).
For `CC[C@H](C)[C@H](NC(=O)CCCCCN1/C(=C/C=C/C=C/C2=[N+](CC)c3ccc(S(=O)(=O)O)cc3C2(C)C)C(C)(C)c2cc(S(=O)(=O)O)ccc21)C(=O)N[C@@H](CCC(=O)O)C(=O)N1CCC[C@H]1C(=O)NC(CS(=O)(=O)O)P(=O)(Oc1ccc(CCNC(=O)C2CCN(S(=O)(=O)c3ccccc3-c3c4ccc(=[N+]5CCc6ccccc65)cc-4oc4cc(N5CCc6ccccc65)ccc34)CC2)cc1)c1ccccc1` (stereo partly shown), “time to peak NIRF signal” read 2 h (measured: granzyme B activity; BALB/c mice with 4T1 tumours, tumour; intravenous, 50 nmol).
For `CC(=O)N(Cc1ccccc1)[C@@H](C)C(=O)N(C)[C@@H](C)C(=O)N(Cc1c[nH]c2cc(Cl)ccc12)[C@@H](C)C(=O)N(C)[C@@H](C)C(=O)N(CCC(C)(C)C)[C@@H](C)C(N)=O`, the Papp was 0.14 ×10⁻⁶ cm/s (PAMPA; 10 µM, 4 h, pH 7.4).
